Measurements from different studies.
Every numbered part comes from another study and shows a few of its results, in no order. Positions count from the first letter of the parent shown.

Study 1 — target: CCNB3, cyclin fold, Cln2 fusion (human); technique: yeast growth competition, sequencing; matrix: yeast; setting: weak parent motif; reference: not given; reading: higher = stronger binding
Starting sequence: CDC25A docking peptide (human); PPHRRRLLFACSP
Substitution | normalised enrichment score
PPHRRRLPFACSP [L8P] | -0.129
PPHRRRLLFAPSP [C11P] | 0.318
PAHRRRLLFACSP [P2A] | 0.208
PPHRWRLLFACSP [R5W] | 0.285
PPHRRRKLFACSP [L7K] | 0.255
PPHRRRLLFACSI [P13I] | 0.296
PPMRRRLLFACSP [H3M] | 0.498
PPHRRRLLFACSN [P13N] | 0.514
PPNRRRLLFACSP [H3N] | 0.152
PSHRRRLLFACSP [P2S] | 0.0989
PPHRRRSLFACSP [L7S] | -0.14
PPHRRGLLFACSP [R6G] | 0.0843
PPHRGRLLFACSP [R5G] | 0.338
PPQRRRLLFACSP [H3Q] | 0.257
PPHRRRILFACSP [L7I] | 0.396

Study 2 — technique: RNA Bind-n-Seq; molecule type: RNA; matrix: in vitro; concentration: 200 nM; setting: whole 134-nt RNA, ends assumed; together with: 150 mM LiCl; reference: input library; reading: higher = stronger binding; library: 7-deaza-guanosine replaces G
Target: Fragile X messenger ribonucleoprotein 1, C-terminal low-complexity region (Fmr1, Mus musculus, UniProt P35922)
All sequences stand within: GGGAGUUCUACAGUCCGACGAUC … UGGAAUUCUCGGGUGUCAAGG
Sequence | log2 enrichment
UAACUUUAGAGGAGGAUCUGAUGGAUAUGGCAGUGGACGUGGAUUUGGGGAUGGCUAUAAUGGGUAUGGAGUAGGACCUGGAGGUGGCAA | 0.46
UCCUGUGCUACACAUCGUAUGUACCGAAUCGGGGAAAAAGGGAAAAAGGGGAAAAAGGGAAAGUAUUAUGUUACGCCGUUCGGAUCUGCA | -0.458
UGGCCCUGGUGGCAUGCGGGGAGGAAGAGGUGGCCUCAUGGAUCGUGGUGGUCCCGGUGGAAAGUUCAGAGGUGGCCGUGGUGGAGACAG | 0.0825
GUCCUGUGCUACACAUCGUAUGUACCGAAUCGGGAAAGGGAAAAAGGGUUUUUUUGGGAAAGUAUUAUGUUACGCCGUUCGGAUCUGCAC | -1.14
UGCAGCUCUCCGGCUGGGAUCCUGGUUGACGCCAUGUCCCAGAAGCACCUUCAGAUCAACCAGACAUUUGAGGAGCUGCGACUGGUCACG | -2.49
AAGUCCUGUGCUACACAUCGUAUGUACCGAAUCGGGAAAAAAAGGGAAAGGGAGGGAAAGUAUUAUGUUACGCCGUUCGGAUCUGCACUU | -0.212
CACAGUCAACACGCACCCACACAGACACAGAGGGAAGGGGUUGGGAUGGGGACAGGGUGCACAGCAGGGCGGGGUAGGACCCCAGCCCCU | 0.779
GCAGGAAGUAAAAACAAAUGGAAAUGCUUCGGAUAGUGGCACGGGUGGGGGUUGCUAAGGAAAGGGUGGGAUGGGAGUGGGUAAAGAGUU | 1.19
AGUCCUGUGCUACACAUCGUAUGUACCGAAUCGGGGAAAGGGGUUUGGGGAAAGGGGAAAGUAUUAUGUUACGCCGUUCGGAUCUGCACU | -0.913
CAAGUCCUGUGCUACACAUCGUAUGUACCGAAUCGGAAAGGGGAAAGGGGAAAGGAAAGUAUUAUGUUACGCCGUUCGGAUCUGCACUUC | -0.107
CCUGUGCUACACAUCGUAUGUACCGAAUCGGGGUUUUUUUGGGGAAAGGGGAAAAAGGGGAAAGUAUUAUGUUACGCCGUUCGGAUCUGC | -0.354

Study 3 — target: TEF, bZIP domain (human); technique: DHFR protein complementation; matrix: yeast; reference: wild-type JUN-FOS pair; reading: higher = stronger binding
Setting: single substitutions, most at no-binding floor
Starting sequence: JUN, bZIP domain (human); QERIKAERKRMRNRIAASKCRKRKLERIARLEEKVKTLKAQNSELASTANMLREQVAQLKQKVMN; partner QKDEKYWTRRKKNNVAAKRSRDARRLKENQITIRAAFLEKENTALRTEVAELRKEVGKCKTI
Substitution | binding fitness [natural log]
E44F | -1.27
S47I | -1.42
S43W | -1.5
A49G | -1.5
L38Q | -1.59
R53G | -1.49
Q55K | -1.24

Other studies, line by line
Molecule | target | assay | test system | conditions | scale | measurement | value
PhoQ, residues 284 288 289 292 302 303 AANNSF | PhoP, residues 12 14 15 18 19 NHTVL (Escherichia coli, UniProt P23836) | Sort-seq, refers to: YFP reporter | E. coli | PhoQ-PhoP variant library, together with: 10 µM Mg2+ | reference: high Mg2+ state, higher = stronger signaling | fold induction | 0.622

Some of these lines once more (study 1):
Substitution | normalised enrichment score
PPMRRRLLFACSP [H3M] | 0.498
PPHRRRLLFACSN [P13N] | 0.514
PPNRRRLLFACSP [H3N] | 0.152
PSHRRRLLFACSP [P2S] | 0.0989
